Values quoted from earlier work, collected from citations in different studies.
Lines come from different studies, so protocols differ. Numbers after ± are the reported error. In brackets after ≈: the same amount, converted by molar mass.
UniProt Q9Y6R4, sequence (whole entry, looked up): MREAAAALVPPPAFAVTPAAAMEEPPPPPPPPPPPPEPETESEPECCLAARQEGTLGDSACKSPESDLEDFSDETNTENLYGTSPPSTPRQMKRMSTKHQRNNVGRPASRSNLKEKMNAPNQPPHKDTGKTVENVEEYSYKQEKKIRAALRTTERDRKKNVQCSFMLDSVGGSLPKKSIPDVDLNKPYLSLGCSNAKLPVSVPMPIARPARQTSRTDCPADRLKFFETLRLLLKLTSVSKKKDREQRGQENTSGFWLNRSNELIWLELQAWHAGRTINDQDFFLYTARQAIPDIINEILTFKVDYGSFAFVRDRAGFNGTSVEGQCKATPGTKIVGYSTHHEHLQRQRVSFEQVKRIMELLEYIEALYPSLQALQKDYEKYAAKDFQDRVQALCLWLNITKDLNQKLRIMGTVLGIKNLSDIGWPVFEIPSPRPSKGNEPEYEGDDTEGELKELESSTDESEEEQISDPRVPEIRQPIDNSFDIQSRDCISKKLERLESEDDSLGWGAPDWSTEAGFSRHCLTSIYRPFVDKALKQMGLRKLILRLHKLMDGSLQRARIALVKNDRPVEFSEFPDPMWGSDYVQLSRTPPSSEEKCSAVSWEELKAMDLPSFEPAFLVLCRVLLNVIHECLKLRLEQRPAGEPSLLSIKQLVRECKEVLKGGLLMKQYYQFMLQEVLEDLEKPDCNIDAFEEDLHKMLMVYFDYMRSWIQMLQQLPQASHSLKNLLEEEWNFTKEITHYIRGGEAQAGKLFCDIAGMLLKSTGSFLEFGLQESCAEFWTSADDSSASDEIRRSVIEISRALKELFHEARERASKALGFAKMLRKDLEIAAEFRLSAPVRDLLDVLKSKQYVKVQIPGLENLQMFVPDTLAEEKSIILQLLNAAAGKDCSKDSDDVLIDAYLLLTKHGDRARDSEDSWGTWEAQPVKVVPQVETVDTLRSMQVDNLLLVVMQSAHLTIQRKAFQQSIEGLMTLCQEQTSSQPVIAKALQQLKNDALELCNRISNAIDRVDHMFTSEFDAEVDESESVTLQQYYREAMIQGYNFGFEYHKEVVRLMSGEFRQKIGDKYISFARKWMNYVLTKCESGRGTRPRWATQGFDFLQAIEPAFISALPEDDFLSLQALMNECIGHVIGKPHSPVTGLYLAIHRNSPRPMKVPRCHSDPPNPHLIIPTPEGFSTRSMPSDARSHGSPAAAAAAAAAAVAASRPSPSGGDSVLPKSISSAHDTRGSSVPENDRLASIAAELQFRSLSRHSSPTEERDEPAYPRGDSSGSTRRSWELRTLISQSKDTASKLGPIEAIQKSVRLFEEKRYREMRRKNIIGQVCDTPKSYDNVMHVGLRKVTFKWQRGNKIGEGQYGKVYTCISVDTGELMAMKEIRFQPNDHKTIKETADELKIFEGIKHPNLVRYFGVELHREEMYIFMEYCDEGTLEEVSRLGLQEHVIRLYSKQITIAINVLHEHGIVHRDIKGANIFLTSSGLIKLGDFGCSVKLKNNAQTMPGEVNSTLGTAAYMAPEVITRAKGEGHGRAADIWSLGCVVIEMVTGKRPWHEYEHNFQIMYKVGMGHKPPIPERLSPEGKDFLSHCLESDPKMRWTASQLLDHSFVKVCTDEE
UniProt P28335, sequence (whole entry, looked up): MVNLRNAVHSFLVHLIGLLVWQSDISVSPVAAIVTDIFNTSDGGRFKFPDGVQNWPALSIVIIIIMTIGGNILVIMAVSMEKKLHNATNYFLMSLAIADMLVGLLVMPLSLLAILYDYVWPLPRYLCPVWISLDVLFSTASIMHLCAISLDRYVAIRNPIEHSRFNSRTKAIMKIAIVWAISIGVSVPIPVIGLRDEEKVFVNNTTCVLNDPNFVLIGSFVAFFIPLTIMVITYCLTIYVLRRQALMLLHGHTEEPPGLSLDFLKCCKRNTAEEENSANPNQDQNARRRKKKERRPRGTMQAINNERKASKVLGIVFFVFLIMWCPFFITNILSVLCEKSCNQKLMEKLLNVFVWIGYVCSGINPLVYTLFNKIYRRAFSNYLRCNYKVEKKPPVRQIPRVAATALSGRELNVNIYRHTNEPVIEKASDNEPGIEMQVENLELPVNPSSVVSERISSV

`CNCc1cc(-c2ccccc2F)n(S(=O)(=O)c2cccnc2)c1` has a Cmax of 40.1 ng/mL (human, plasma; 30 mg multiple dose, observed clinical data).
For `Cc1nsc(-c2nnc3n2CCN(C(=O)c2ccc(F)cc2)[C@@H]3C)n1`, the Cmax was 527 ng/mL (human; oral, 45 mg, single dose, formulation).
`Nc1cc(C(F)(F)F)c(-c2nc(N3CCOCC3)nc(N3CCOCC3)n2)cn1` has a remaining activity of 68% (Mitogen-activated protein kinase kinase kinase 4 (MAP3K4, Homo sapiens, UniProt Q9Y6R4); enzyme activity; 10 µM; reference: untreated).
With `O=C(O)C[C@H](O)C[C@H](O)/C=C/c1c(C2CC2)nc2ccccc2c1-c1ccc(F)cc1` the Cmax was 30 nM (plasma; concentration not given, total, steady state).
`C=CC(=O)N1CCC([C@@H]2CCNc3c(C(N)=O)c(-c4ccc(Oc5ccccc5)cc4)nn32)CC1` has a Cmax of 376 ± 192 ng/mL (human patients; oral, 160 mg once daily, day 1).
`CNC(=O)[C@@]12C[C@@H]1[C@@H](n1cnc3c(NCc4cccc(Cl)c4)nc(C#Cc4ccc(F)c(F)c4)nc31)[C@H](O)[C@@H]2O` gave a Ki of 1000 to 10000 nM (5-hydroxytryptamine receptor 2C (HTR2C, Homo sapiens, UniProt P28335); radioligand binding (PDSP)).
The Cmax of `O=C(O)Cc1ccccc1Nc1c(Cl)cccc1Cl` is reported as 6280 nM (plasma; concentration not given, total, steady state).
`CNC(C)C1CCC(N)C(OC2C(N)CC(N)C(OC3OCC(C)(O)C(NC)C3O)C2O)O1` (stereo not drawn) has an MIC of 2 µg/mL (≈ 4.19 µM) (Pseudomonas aeruginosa; clinical isolate RKI-No_693/15).
With `C[C@H]1COCCN1c1nc(-c2cnc(N)cc2C(F)F)nc(N2CCOCC2)n1` the GI50 was 127 nM (VA-ES-BJ).
`CCCN1CCCC[C@H]1C(=O)Nc1c(C)cccc1C` gave a Cmax of 1770 nM (plasma; concentration not given, total concentration).
With `CCCCCCCCCCCCCCCC(=O)N[C@@H](CCC(=O)NCCCC[C@@H]1NC(=O)[C@H]([C@@H](C)CC)NC(=O)[C@@H](NC(=O)[C@@H]2CCCN2C(=O)[C@H](Cc2ccccc2)NC(=O)[C@H](Cc2c[nH]cn2)NC(=O)[C@@H](NC(=O)[C@H](CC(=O)O)NC(=O)CC(C)C)[C@@H](C)O)CSSC[C@@H](C(=O)N[C@@H](CCCCN)C(N)=O)NC(=O)CNC(=O)[C@H](CCCCN)NC(=O)[C@H](CO)NC(=O)[C@H](CCCNC(=N)N)NC(=O)[C@@H]2CCCN2C(=O)[C@H](CCC(=O)O)NC(=O)[C@H](Cc2ccccc2)NC1=O)C(=O)O` the Cmax was 172 ± 31 nM (cynomolgus monkey, plasma; subcutaneous, 0.3 mg/kg, 8 h post-dose).
The Cmax of `O=C(CCCN1CC=C(n2c(=O)[nH]c3ccccc32)CC1)c1ccc(F)cc1` is reported as 10 nM (plasma; concentration not given, total, steady state).
For `COc1cc(N2CCC(N3CCN(C)CC3)CC2)ccc1Nc1ncc(Cl)c(Nc2ccccc2P(C)(C)=O)n1`, the Cmax was 401 ng/mL (healthy subjects; dose not given, CYP3A inhibition, single dose, with: itraconazole 200 mg twice daily).
`CC1(C)S[C@@H]2[C@H](NC(=O)[C@H](N)c3ccccc3)C(=O)N2[C@H]1C(=O)O` gave an MIC of over 16 µg/mL (Pseudomonas aeruginosa; clinical isolate RKI-No_47/09).
`COc1ccc2[nH]c([S+]([O-])Cc3ncc(C)c(OC)c3C)nc2c1` (stereo not drawn) has a Cmax of 3500 nM (plasma; concentration not given, total, steady state).
With `COc1cc2c(Oc3ccc4[nH]c(C)cc4c3F)ccnc2cc1OCC1(N)CC1` the Cmax was 61.6 ± 16.3 ng/mL (human; 12 mg/day, two cycles).
The Cmax of `CC(C)COc1ccc(CNC(=O)N(Cc2ccc(F)cc2)C2CCN(C)CC2)cc1` is reported as 25 nM (plasma; concentration not given, total concentration).
The Cmax of `COCCc1ccc(OCC(O)CNC(C)C)cc1` (stereo not drawn) is reported as 108 ng/mL (human fasted; 200 mg multiple doses, day 7, mean).

Excerpt of the above:
With `O=C(O)C[C@H](O)C[C@H](O)/C=C/c1c(C2CC2)nc2ccccc2c1-c1ccc(F)cc1` the Cmax was 30 nM (plasma; concentration not given, total, steady state).
The Cmax of `CC(C)COc1ccc(CNC(=O)N(Cc2ccc(F)cc2)C2CCN(C)CC2)cc1` is reported as 25 nM (plasma; concentration not given, total concentration).
`CCCN1CCCC[C@H]1C(=O)Nc1c(C)cccc1C` gave a Cmax of 1770 nM (plasma; concentration not given, total concentration).
